Measurements collected from several papers.
Several values in a cell are separate wells, animals, samples, runs or records. ± marks the error that the study gave.
UniProt Q96Q15, sequence (whole entry, looked up): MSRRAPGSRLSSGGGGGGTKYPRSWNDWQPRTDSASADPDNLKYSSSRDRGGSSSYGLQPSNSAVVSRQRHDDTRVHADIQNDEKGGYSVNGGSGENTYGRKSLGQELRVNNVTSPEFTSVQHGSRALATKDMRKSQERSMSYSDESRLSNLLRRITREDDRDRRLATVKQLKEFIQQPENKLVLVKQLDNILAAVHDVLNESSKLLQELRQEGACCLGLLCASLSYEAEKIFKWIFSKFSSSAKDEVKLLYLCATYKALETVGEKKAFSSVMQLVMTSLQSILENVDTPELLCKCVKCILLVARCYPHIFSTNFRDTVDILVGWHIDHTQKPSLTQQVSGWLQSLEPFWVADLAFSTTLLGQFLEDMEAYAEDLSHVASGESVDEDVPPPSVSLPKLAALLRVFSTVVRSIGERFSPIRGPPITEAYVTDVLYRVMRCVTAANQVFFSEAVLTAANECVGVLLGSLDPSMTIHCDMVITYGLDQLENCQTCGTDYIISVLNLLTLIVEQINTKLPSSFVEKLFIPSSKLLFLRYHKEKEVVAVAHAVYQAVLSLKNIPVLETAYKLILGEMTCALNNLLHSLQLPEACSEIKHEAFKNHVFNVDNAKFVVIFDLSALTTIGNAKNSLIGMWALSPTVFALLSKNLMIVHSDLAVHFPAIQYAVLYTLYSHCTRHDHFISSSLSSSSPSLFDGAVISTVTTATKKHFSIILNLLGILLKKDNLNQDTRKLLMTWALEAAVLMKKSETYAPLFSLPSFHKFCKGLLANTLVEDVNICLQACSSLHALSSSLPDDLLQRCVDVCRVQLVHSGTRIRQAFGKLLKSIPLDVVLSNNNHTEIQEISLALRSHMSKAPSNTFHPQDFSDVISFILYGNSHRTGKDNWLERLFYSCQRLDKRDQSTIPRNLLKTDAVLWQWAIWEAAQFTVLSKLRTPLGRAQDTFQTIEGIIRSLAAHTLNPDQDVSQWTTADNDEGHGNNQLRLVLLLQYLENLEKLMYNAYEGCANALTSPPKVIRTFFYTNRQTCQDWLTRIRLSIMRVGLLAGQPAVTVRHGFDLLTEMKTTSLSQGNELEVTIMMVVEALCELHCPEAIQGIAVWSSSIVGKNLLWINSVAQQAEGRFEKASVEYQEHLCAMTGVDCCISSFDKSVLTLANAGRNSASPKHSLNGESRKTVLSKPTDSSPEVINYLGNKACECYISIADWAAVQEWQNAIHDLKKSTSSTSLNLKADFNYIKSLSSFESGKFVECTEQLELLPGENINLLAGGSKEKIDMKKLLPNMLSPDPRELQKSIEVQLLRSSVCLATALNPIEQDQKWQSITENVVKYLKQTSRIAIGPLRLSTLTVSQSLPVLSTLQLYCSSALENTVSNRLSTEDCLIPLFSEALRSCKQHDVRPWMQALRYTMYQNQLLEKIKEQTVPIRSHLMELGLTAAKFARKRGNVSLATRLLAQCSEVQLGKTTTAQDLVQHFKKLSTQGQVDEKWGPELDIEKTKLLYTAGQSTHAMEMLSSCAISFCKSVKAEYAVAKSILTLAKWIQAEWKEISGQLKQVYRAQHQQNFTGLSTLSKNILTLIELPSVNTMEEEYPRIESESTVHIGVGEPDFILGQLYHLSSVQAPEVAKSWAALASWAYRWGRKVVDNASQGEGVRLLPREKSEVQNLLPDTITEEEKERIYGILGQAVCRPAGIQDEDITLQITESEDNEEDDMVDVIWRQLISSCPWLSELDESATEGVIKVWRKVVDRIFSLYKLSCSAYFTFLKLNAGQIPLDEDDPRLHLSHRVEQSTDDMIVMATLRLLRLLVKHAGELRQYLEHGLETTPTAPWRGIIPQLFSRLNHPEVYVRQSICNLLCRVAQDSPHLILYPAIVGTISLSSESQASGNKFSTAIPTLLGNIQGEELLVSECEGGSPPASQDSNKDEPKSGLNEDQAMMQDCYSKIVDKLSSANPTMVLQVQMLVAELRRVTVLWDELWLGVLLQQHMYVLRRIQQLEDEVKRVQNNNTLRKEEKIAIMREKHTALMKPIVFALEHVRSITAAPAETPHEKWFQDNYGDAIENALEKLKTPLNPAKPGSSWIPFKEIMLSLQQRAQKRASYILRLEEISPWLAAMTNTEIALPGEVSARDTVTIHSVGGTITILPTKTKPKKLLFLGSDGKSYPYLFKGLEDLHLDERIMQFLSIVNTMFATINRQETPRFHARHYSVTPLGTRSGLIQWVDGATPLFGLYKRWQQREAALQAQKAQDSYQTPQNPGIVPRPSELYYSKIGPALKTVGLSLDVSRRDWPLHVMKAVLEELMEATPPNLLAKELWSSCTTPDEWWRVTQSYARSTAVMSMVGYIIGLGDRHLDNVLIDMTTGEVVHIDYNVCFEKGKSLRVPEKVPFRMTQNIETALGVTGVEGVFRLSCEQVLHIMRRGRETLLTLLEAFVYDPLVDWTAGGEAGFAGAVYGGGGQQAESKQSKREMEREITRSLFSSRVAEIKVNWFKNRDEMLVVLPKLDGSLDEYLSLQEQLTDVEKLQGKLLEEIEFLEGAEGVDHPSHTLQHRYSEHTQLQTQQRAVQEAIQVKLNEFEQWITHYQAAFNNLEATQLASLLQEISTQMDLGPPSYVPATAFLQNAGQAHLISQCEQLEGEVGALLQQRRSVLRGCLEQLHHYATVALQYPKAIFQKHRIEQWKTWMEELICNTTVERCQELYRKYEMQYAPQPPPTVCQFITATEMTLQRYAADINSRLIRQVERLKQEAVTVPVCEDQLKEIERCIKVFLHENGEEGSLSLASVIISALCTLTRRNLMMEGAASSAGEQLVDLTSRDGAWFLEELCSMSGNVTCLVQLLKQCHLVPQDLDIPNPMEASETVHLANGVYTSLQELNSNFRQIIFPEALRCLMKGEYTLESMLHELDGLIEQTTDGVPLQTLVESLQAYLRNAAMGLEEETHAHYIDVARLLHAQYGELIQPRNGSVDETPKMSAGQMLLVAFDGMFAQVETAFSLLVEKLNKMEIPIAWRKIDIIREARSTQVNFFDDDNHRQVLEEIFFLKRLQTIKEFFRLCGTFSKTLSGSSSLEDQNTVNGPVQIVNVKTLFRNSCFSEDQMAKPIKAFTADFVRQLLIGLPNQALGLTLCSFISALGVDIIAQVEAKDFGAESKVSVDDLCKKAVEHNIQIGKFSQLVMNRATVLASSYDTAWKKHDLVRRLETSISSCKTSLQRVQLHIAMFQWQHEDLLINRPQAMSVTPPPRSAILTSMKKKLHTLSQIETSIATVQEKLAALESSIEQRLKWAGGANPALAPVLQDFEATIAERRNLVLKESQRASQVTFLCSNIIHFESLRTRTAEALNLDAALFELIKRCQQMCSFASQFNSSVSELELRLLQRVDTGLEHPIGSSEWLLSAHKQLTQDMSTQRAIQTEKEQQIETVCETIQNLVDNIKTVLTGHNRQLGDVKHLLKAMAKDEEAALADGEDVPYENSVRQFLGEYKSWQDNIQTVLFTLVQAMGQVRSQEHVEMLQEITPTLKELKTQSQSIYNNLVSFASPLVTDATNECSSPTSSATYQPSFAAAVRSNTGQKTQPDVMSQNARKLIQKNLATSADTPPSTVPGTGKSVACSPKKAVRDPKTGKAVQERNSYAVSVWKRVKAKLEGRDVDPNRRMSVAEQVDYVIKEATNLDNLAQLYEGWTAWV
UniProt Q9H2X6, sequence (whole entry, looked up): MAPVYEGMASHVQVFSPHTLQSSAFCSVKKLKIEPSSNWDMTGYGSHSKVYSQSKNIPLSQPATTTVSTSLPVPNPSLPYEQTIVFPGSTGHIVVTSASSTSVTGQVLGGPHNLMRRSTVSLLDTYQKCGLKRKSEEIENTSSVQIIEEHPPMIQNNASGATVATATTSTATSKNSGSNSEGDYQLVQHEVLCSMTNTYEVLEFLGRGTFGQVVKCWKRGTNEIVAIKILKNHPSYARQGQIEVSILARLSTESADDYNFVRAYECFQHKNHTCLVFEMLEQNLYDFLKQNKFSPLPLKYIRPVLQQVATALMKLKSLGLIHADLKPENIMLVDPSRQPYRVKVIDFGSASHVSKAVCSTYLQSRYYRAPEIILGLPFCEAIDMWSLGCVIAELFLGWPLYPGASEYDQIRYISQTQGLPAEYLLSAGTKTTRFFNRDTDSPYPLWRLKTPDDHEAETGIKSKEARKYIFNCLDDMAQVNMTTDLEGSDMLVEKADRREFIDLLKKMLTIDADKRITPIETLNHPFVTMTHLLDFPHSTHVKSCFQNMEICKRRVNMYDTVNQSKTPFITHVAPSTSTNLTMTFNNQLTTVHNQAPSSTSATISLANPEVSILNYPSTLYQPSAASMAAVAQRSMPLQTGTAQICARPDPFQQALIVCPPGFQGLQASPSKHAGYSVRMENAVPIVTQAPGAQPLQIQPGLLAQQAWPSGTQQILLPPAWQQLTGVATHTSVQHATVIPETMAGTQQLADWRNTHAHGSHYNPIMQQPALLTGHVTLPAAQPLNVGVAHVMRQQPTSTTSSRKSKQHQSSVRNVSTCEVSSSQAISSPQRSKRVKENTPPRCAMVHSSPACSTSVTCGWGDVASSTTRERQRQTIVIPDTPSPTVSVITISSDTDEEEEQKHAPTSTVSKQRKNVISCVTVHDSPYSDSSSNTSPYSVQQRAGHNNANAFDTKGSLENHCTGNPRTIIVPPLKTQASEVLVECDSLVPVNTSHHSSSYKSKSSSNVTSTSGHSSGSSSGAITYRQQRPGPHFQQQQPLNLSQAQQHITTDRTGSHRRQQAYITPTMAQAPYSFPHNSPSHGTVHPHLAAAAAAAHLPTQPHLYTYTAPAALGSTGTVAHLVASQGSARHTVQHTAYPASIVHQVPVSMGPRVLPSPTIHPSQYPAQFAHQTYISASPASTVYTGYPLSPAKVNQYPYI

| Compound | tested on | test | test system | conditions | how to read | endpoint | value |
| --- | --- | --- | --- | --- | --- | --- | --- |
| O=[N+]([O-])[O-].O=c1c(C=NN=C([S-])Nc2ccccc2)coc2ccccc12.[Cu+2].c1cnc2c(c1)c1nccnc1c1cccnc12 | – | oxidative DNA cleavage | supercoiled pUC19 DNA | 100 µM, 30 min, added: ascorbic acid 50 µM, DNA 40 µM | – | supercoiled DNA form | 40% |
| CN(C)[C@H]1C[C@@]23CC[C@@]4(O2)C(=CC[C@]2(C)[C@@H](c5ccc6ccncc6c5)CC[C@H]24)C=C3[C@@H](O)[C@@H]1O | Serine/threonine-protein kinase SMG1 (SMG1, Homo sapiens, UniProt Q96Q15) | ATP probe labelling, inhibitor, KiNativ profiling | – | 0.1 µM | – | inhibition | -0.9% |
| CCN(Cc1ccccc1)C(=O)CCc1nc(CN2CCN(C(=O)Cc3ccc(OC)c(OC)c3)CC2)no1 | – | beam walking test | mouse CCI model | 5 mg/kg, unit not given | lower is better | foot slips | 1.83 ± 0.36 |
| CC(C)[C@@H]1NC(=O)[C@@H]2CCCN2C(=O)[C@@H](C(C)C)NC(=O)[C@H]2CCCN2C(=O)[C@H](C(C)C)NC(=O)[C@@H]2CCCN2C(=O)[C@@H](C(C)C)NC(=O)[C@H]2CCCN2C(=O)[C@H](C(C)C)NC(=O)[C@@H]2CCCN2C(=O)[C@@H](C(C)C)NC(=O)[C@H]2CCCN2C1=O | – | – | sheep lipid bilayer | 10 µM, pH 7.4, 23 °C, added: 0.1 M K+ vs Cs chloride | – | bi-ionic potential | -22 mV |
| CCc1nnc(-c2c(OC)cc(-c3cnc4cc(-c5cnn(C)c5)ccn34)cc2OC)o1 | – | histomorphometry | male C57BL/6J mouse, tibia | oral gavage, 40 mg/kg once daily, 3 wk | – | osteoclast surface/bone surface | 20.7 ± 2.15% |
| COc1ccccc1-c1n[nH]c2nc(NC3CCN(C(=O)Cc4ccc(F)cc4F)CC3)ncc12 | – | bead binding, competition bead pull-down, measured: LINJ.35.1240 | Leishmania donovani extract | 10 µM | baseline: vehicle | relative abundance | 1.17 |
| CC(C)[C@H]1NC(=O)C[C@H]2/C=C/CCSSC[C@@H](NC1=O)C(=O)N[C@H](Cc1cccc3ccccc13)C(=O)NCC(=O)O2 | Ephrin type-A receptor 6 (EPHA6, Homo sapiens, UniProt Q9UF33) | enzyme activity, inhibitor | – | 10 µM | – | inhibition | -18.9% |
| O=C1NC(=O)c2c1c1cc(F)c[n+]3c1c1c2c2cc(O)ccc2[n]1[Ru-4]312([N]=C=S)[S+]3CC[S+]1CC[S+]2CC3 (stereo not shown) | Homeodomain-interacting protein kinase 2 (HIPK2, Homo sapiens, UniProt Q9H2X6) | enzyme activity | – | 100 nM, human enzyme, added: 10 µM ATP | baseline: untreated | remaining activity | 39% |
| [Cu+2].c1cnc2c(c1)c1nccnc1c1cccnc12.c1cnc2c(c1)c1nccnc1c1cccnc12 | – | DNA cleavage | supercoiled pUC19 DNA | 100 µM, 4 h, 37 °C, no reducing agent, added: DNA 40 µM | – | supercoiled DNA form | 2% |
| Cc1ccc(C2=CC(C)(C)Oc3ccc(-c4ccc(-c5ccc(C(=O)O)cc5)[nH]4)cc32)cc1 | – | – | CD1 mouse, male | 20 mg/kg, 1 day after treatment, dosed for 2 weeks | – | testis weight | 0.117 g and 0.0643 g and 0.105 g and 0.108 g and 0.0871 g |
| CC(C)C[C@H](NC(=O)[C@H](Cc1ccccc1)NC(=O)[C@H](C)NC(=O)[C@@H](CS)NC(=O)CNC(=O)[C@H](N)CO)C(=O)N[C@@H](CO)C(=O)N[C@H](C(=O)N[C@@H](CCCCN)C(=O)N[C@@H](CCCCN)C(=O)N[C@@H](CCC(N)=O)C(=O)N[C@@H](Cc1ccccc1)C(=O)N[C@@H](CCC(=O)O)C(=O)N[C@@H](CCC(=O)O)C(=O)N[C@@H](CC(C)C)C(=O)N[C@H](C(=O)N[C@@H](CC(C)C)C(=O)NCC(=O)N[C@@H](CCC(=O)O)C(=O)N[C@@H](Cc1ccccc1)C(=O)N[C@@H](CC(C)C)C(=O)N[C@H](CCCCN)C(=O)N[C@H](CC(C)C)C(=O)N[C@H](CC(=O)O)C(=O)N[C@@H](CCCNC(=N)N)C(=O)N[C@H](CCCNC(=N)N)C(=O)N[C@@H](CCCNC(=N)N)C(=O)N[C@@H](CCCCN)C(=O)O)[C@@H](C)O)C(C)C | – | immunoblot, measured: SMAC, survivin (BIRC5) | mouse A549 xenograft, tumour | intravenous, dose not given | – | SMAC and survivin expression | decreased |
| CS(C)(=O)=Nc1ccc(-c2ccc(-c3nc4cc(O[C@@H]5CO[C@H]6[C@@H]5OC[C@H]6O)[nH]c4cc3F)cc2)cc1 | Calcium/calmodulin-dependent protein kinase type IV (CAMK4, Homo sapiens, UniProt Q16566) | enzyme activity, inhibitor | – | 10 µM | – | inhibition | 8% |
| CC(C)C[C@@H]1NC(=O)[C@@H](Cc2c[nH]c3ccccc23)NC(=O)[C@H](CCCNC(=N)N)NC(=O)[C@@H](CCC(=O)O)NC(=O)[C@H](CCC(N)=O)NC(=O)[C@@H](CCC(=O)O)NC(=O)[C@H](CCCNC(=N)N)NC(=O)[C@@H](Cc2c[nH]c3ccccc23)NC1=O | – | – | male LDLr-/- mouse, Western diet | dose not given, 2 weeks | – | plasma triglyceride level | decreased |
| COc1ccccc1-c1n[nH]c2nc(N[C@H]3CC[C@H](NS(=O)(=O)CC(C)C)CC3)ncc12 | – | bead binding, competition bead pull-down, measured: LINJ.24.2150 | Leishmania donovani extract | 10 µM | baseline: vehicle | relative abundance | 1.13 |
| O=C(O)c1ccc(-c2nc(-c3ccccc3Cl)c3sccn23)cc1 | – | – | C57BL/6 mice, 5-fluorouracil treated | dose not given, day 17 | baseline: RBC | reticulocytes | 17.4% and 17.1% and 12.2% and 12.4% |
| Cc1cc(C(=O)Nc2nc3cccc(C)c3n2[C@H]2CCCCN(C(=O)/C=C/CN(C)C)C2)ccn1 | Trypanosoma brucei brucei | – | 2T1 CLK1 C215S overexpressing | 0.03086 µM, 72 h | – | survival | 106% and 112% and 95% and 97.3% |
| O=C1NC2(CC2)COc2ncc(F)cc2[C@H]2COCCN2c2ccn3ncc1c3n2 | – | – | Sprague-Dawley rat, female, serum | oral, 5 mg/kg/day, end of treatment, 4-week subacute toxicity | – | serum triglycerides | 0.59 ± 0.21 mmol/L |
| CCCCCCCCCCCC1CC(=O)NC(CC(N)=O)C(=O)NC(Cc2ccc(O)cc2)C(=O)NC(CC(N)=O)C(=O)NC(CCC(N)=O)C(=O)N2CCCC2C(=O)NC(CC(N)=O)C(=O)NC(CO)C(=O)N1 (stereo not shown) | – | calcein leakage | DOPC/DOPG/CHOL liposomes | concentration not given, added: 20 wt% PEG-8000 | – | maximum fusion | 64 ± 8% |
| CCCC[C@@H]1NC(=O)[C@H](Cc2ccc(O)cc2)NC(=O)[C@@H]2CCCN2C(=O)[C@H](CC(=O)O)NC(=O)[C@H](C)NC(=O)[C@H](Cc2ccccc2)NC(=O)[C@@H]2CSCCC(=O)N3CN(CN(C3)C(=O)CCSC[C@@H](C(=O)N[C@@H](C)C(N)=O)NC1=O)C(=O)CCSC[C@H](NC(C)=O)C(=O)N[C@@H](CC(C)(C)C)C(=O)N1CCC[C@H]1C(=O)N[C@@H](CCC(=O)O)C(=O)N[C@H](CCCCNC(=O)CCc1cn(CCOCCOCCOCCN(CCOCCOCCOCCC(=O)N[C@H]3CSCCC(=O)N4CN5CN(C4)C(=O)CCSC[C@H](NC(=O)[C@@H](CC(=O)O)NC(=O)[C@H](Cc4cccc6ccccc46)NC(=O)[C@@H]4CCCN4C3=O)C(=O)N[C@@H](CCSC)C(=O)N[C@@H](CCCCNC(=N)N)C(=O)N[C@@H](CC(=O)O)C(=O)N[C@@H](Cc3c[nH]c4ccccc34)C(=O)N[C@@H](CO)C(=O)N[C@@H]([C@@H](C)O)C(=O)N3CCC[C@H]3C(=O)N3C[C@H](O)C[C@H]3C(=O)N[C@@H](Cc3c[nH]c4ccccc34)C(=O)N[C@H](C(N)=O)CSCCC5=O)CCOCCOCCOCCn3cc(CCC(=O)NCCCC[C@H]4NC(=O)[C@H](CCC(=O)O)NC(=O)[C@@H]5CCCN5C(=O)[C@H](CC(C)(C)C)NC(=O)[C@@H](NC(C)=O)CSCCC(=O)N5CN6CN(C5)C(=O)CCSC[C@H](NC(=O)[C@H](Cc5ccc(O)cc5)NC(=O)[C@@H]5CCCN5C4=O)C(=O)N[C@@H](Cc4ccccc4)C(=O)N[C@@H](C)C(=O)N[C@@H](CC(=O)O)C(=O)N4CCC[C@H]4C(=O)N[C@@H](Cc4ccc(O)cc4)C(=O)N[C@@H](CCCC)C(=O)N[C@H](C(=O)N[C@@H](C)C(N)=O)CSCCC6=O)nn3)nn1)C(=O)N1CCC[C@H]1C(=O)N[C@@H](Cc1ccc(O)cc1)C(=O)N2 | – | NanoString, measured: Cd1d1-mRNA | mouse bearing MC38-Nectin-4 tumour, circulating white blood cells | 5 mg/kg, 24 h after dosing, unit not given | baseline: vehicle | mRNA level | 1.62 |
| CC(C)(C)C(=O)OCOP(=O)(OCOC(=O)C(C)(C)C)C1CCCN(O)C1=O (stereo not shown) | ACHN | – | – | – | – | log TGI | -5.1 log M |
| Cc1ccc(S(=O)(=O)N2CC2C(=O)N(C)C)cc1 (stereo not shown) | – | – | mouse, Lewis lung carcinoma | intraperitoneal, 170 mg/kg, 16 doses, day 13 | – | tumour growth inhibition | 37% |
| c1c[nH]c(CNCc2cc(CNCc3ccc[nH]3)cc(-c3cc(CNCc4ccc[nH]4)cc(Cn4cc(COCCOCCOCCOCCOCc5cn(Cc6cc(CNCc7ccc[nH]7)cc(-c7cc(CNCc8ccc[nH]8)cc(CNCc8ccc[nH]8)c7)c6)nn5)nn4)c3)c2)c1 | – | – | hACE2 mice, bronchoalveolar lavage fluid | dose not given | baseline: control | IL-18 level | decreased |
| CCCCOc1nc(N)c2[nH]c(=O)n(CCCN(CCCN3CCOCC3)Cc3cccc(CC(=O)OC)c3)c2n1 | – | measured: IFN-regulated genes | human, healthy, plasma | inhalation, 15 µg single, target engagement | – | CXCL10 level | no effect |
| CC[C@H](C)[C@H](NC(=O)[C@H](CO)NC(=O)[C@H](Cc1ccc(O)cc1)NC(=O)[C@H](Cc1ccc(O)cc1)NC(=O)[C@H](CC(N)=O)NC(=O)CNC(=O)[C@H](CO)NC(=O)[C@H](Cc1ccc(O)cc1)NC(=O)[C@H](CO)NC(=O)[C@H](CO)NC(=O)[C@H](CC(N)=O)NC(=O)COCCOCCNC(=O)CN1CCN(CC(=O)O)CCN(CC(=O)O)CCN(CC(=O)O)CC1)C(=O)N[C@@H](CC(C)C)C(N)=O [copper-64 labelled] | – | dynamic PET | mouse, tamoxifen-induced PDAC, tumor | intravenous, 0.1 µg/mouse, 12.5 min | – | tumour uptake | 10.5 %ID/mL |
| COc1nc(CC=C(C)CC=CC(C)=CC(C)C(OC2OC(CO)C(O)C(O)C2O)C(C)=CCO)c(C)c(O)c1OC (stereo not shown) | – | glucuronidation | human liver microsomes | – | – | Vmax | 0.061 ± 0.001 nmol/min/mg |

For quick reference, copied from above:
| Compound | tested on | test | test system | conditions | how to read | endpoint | value |
| --- | --- | --- | --- | --- | --- | --- | --- |
| CN(C)[C@H]1C[C@@]23CC[C@@]4(O2)C(=CC[C@]2(C)[C@@H](c5ccc6ccncc6c5)CC[C@H]24)C=C3[C@@H](O)[C@@H]1O | Serine/threonine-protein kinase SMG1 (SMG1, Homo sapiens, UniProt Q96Q15) | ATP probe labelling, inhibitor, KiNativ profiling | – | 0.1 µM | – | inhibition | -0.9% |
| CCN(Cc1ccccc1)C(=O)CCc1nc(CN2CCN(C(=O)Cc3ccc(OC)c(OC)c3)CC2)no1 | – | beam walking test | mouse CCI model | 5 mg/kg, unit not given | lower is better | foot slips | 1.83 ± 0.36 |
| CC(C)[C@@H]1NC(=O)[C@@H]2CCCN2C(=O)[C@@H](C(C)C)NC(=O)[C@H]2CCCN2C(=O)[C@H](C(C)C)NC(=O)[C@@H]2CCCN2C(=O)[C@@H](C(C)C)NC(=O)[C@H]2CCCN2C(=O)[C@H](C(C)C)NC(=O)[C@@H]2CCCN2C(=O)[C@@H](C(C)C)NC(=O)[C@H]2CCCN2C1=O | – | – | sheep lipid bilayer | 10 µM, pH 7.4, 23 °C, added: 0.1 M K+ vs Cs chloride | – | bi-ionic potential | -22 mV |
